Published values of several laboratories.
Every numbered part comes from another study and shows a few of its results, in no order.

Study 1
Target: Fragile X messenger ribonucleoprotein 1, C-terminal low-complexity region (Fmr1, Mus musculus, UniProt P35922)
Technique: RNA Bind-n-Seq
Molecule type: RNA
Matrix: in vitro
Tested at: 200 nM
Notes: whole 134-nt RNA, ends assumed
Together with: 150 mM KCl
Reference: input library
Reading: higher = stronger binding
With `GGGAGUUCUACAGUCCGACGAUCUCAAGUCCUGUGCUACACAUCGUAUGUACCGAAUCGGGAAAGGAAAGGAAAGGGGAAAGUAUUAUGUUACGCCGUUCGGAUCUGCACUUCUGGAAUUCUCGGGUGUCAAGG` the log2 enrichment was -0.438.
For `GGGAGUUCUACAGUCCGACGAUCUAACUUUAGAGGAGGAUCUGAUGGAUAUGGCAGUGGACGUGGAUUCGGGGAUGGCUAUAAUGGGUAUGGAGGAGGACCUGGAGGUGGCAAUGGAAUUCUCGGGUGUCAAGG`, the log2 enrichment was 0.117.
With `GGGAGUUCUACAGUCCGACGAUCGCAGGAAGUAAAAACAAAUGGAAAUGCUUCGGAUAGUGGCAGGGGUGGGGGUUGCUAAGGAAAGGGCGGGAUGGGAGUGGGUAAAGAGUUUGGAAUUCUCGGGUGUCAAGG` the log2 enrichment was 0.348.
`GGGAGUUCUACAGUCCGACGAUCAGUCCUGUGCUACACAUCGUAUGUACCGAAUCGGUUUUUGGUUUUUUUGGUUUUUGGAAAGUAUUAUGUUACGCCGUUCGGAUCUGCACUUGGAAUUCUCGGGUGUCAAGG` gave a log2 enrichment of -0.875.
With `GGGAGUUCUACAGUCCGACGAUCACCAUGCAGGUGGGCAUCUUUGGGAAGUGGGGCAAGGGGGGGAUAUGGAGGGGGGUAACACUUUGGGAACAGGUGGUCCCAGGUCGUUUCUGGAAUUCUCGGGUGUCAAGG` the log2 enrichment was 0.618.
`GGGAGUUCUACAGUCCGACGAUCUGGGAGGUGGAUUUUGUUUAUUUUUUUAGCUCAUUUCCAGGGGUGGGAAUUUUUUUUUAAUAUGUGUCAGGAAUAAAGUUGUUUUUGAAAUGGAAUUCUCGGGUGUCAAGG` has a log2 enrichment of 0.509.
With `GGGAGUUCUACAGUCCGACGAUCAGUCCUGUGCUACACAUCGUAUGUACCGAAUCAAACCCCCCCAAAUUUAAAUUUAAAAAAGUAUUAUGUUACGCCGUUCGGAUCUGCACUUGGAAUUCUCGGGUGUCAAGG` the log2 enrichment was 0.298.
`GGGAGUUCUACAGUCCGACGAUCUCAAGUCCUGUGCUACACAUCGUAUGUACCGAAUCGGGCCCGGCCCGGGCCCGGGAAAGUAUUAUGUUACGCCGUUCGGAUCUGCACUUCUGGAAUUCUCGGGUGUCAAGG` gave a log2 enrichment of -0.234.

Study 2
Target: Centromere-binding protein 1, full length, His-tagged (CBF1, Saccharomyces cerevisiae, UniProt P17106, residues 1-351)
UniProt P17106, sequence (whole entry, looked up): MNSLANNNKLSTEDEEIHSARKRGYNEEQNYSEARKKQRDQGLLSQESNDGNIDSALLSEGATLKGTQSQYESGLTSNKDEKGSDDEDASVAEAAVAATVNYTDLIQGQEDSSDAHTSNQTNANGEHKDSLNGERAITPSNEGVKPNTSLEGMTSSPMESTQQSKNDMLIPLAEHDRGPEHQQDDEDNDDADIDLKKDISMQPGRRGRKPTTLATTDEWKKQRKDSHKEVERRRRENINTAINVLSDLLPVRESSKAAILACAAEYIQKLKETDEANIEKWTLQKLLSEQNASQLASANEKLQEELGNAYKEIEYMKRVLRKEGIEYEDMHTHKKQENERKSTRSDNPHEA
Technique: competition protein-binding microarray
Molecule type: double-stranded DNA, one strand shown
Matrix: in vitro
Tested at: 2 µM
Notes: whole 60-bp probe, lowest competitor level
Together with: Pho4 competitor, 0.05 µM
Reading: higher = stronger binding
For `ATTTTGCACTTCCGTCACATGCAATCGAGGCAAAAAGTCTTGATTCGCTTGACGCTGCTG`, the fluorescence intensity was 479 a.u.
The fluorescence intensity of `ACCAATGGATGTTAGCACGTGTTTCAACTCAGCGGCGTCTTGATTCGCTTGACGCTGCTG` is reported as 2040 a.u.
`CTAACGAAGGTTTGCGAAGTGGGTGACAAGCCAAGTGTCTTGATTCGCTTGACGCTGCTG` gave a fluorescence intensity of 65.3 a.u.
`AAAGCGGTAATTTTTCACGTGGTTTCACATATCTATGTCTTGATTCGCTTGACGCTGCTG` gave a fluorescence intensity of 1790 a.u.
For `AGATACATACATGAACATATGCACTTATAGCGCCCAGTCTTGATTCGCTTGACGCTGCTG`, the fluorescence intensity was 78 a.u.
The fluorescence intensity of `GTCTTGTCTCATTGAACTGTGGGTGTCCCCACTTCAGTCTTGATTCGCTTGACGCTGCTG` is reported as 78 a.u.
The fluorescence intensity of `TGTACCATAGGTGTCCACATGTAAAGACAATGGTTCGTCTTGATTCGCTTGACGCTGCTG` is reported as 98.3 a.u.
The fluorescence intensity of `CTTCTGTAAATTTGGCCAGTGGGTGGACGCGCCCCGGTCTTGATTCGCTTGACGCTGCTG` is reported as 59.8 a.u.
`TGCGCAACAACTTGAGGTGTGGGTGTATGTCTAGAAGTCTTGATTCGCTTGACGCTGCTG` has a fluorescence intensity of 64.3 a.u.
The fluorescence intensity of `CGTCCTAGTGATTGGCGCGTGGGTGCCATGAGGAAGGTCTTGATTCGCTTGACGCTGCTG` is reported as 92.1 a.u.
`GTCTTGTCTCATTGCCTTGTGGGTGTCCCCACTTCAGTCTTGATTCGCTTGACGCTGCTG` gave a fluorescence intensity of 65.7 a.u.
`CAAAGAAACCAAAGGGTCGTGCTTTCAAGAGATTATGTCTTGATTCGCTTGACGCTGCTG` has a fluorescence intensity of 91.6 a.u.

Study 3
Target: RNA binding protein fox-1 homolog 2, RRM domain, GST-SBP tag (RBFOX2, Homo sapiens, UniProt O43251-10, residues 100-194)
Technique: RNA Bind-n-Seq
Molecule type: RNA
Matrix: in vitro
Tested at: 365 nM
Notes: natural RNA segment, single round, ends assumed
Reference: no-protein control
Reading: higher = stronger binding
Target sequence (chain): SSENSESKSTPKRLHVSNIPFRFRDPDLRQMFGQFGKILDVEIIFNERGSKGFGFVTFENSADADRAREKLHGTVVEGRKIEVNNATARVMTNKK
Under “RBNS enrichment (R)”, `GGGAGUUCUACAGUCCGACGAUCACAGCUUGCCUUUUUAAUGUUAGUCACAAUGUUUUUGUGGUUUGAAGUUUAGUUUAAUGUUAGUGCAGUGACGGGAAAUACACAUUAUGCUAAUGUUGAUGACAGAAUUUUGGAAUUCUCGGGUGCCAA` is recorded as 0.898.
`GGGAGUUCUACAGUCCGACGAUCUUUUCAGAGUCUGUAACAUUGAAGCCCUCCAUCAGAUCUACCUAUUACUGCUGCUUUAGAGCAUGAGUGCCUAGGUGCCUGGAUGCAUGUGUGCCCGGAUGCAUGGAUGCUGGAAUUCUCGGGUGCCAA` — result for “RBNS enrichment (R)”: 5.31.
`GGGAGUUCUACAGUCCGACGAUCAACCUAUCUGUAAAAUCAGAUGUUUUUUCUUUGUAGAGAAGGAUUUCUGGUGCUUUUGCUUACUAAGAGACCGAUAUUCUUAAGUUGUUUUCUUGUUUUAACAGCCUUGAUGGAAUUCUCGGGUGCCAA`: “RBNS enrichment (R)” 0.453.
`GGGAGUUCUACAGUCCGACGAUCUACUGAUUUACAAUUGAGUAGAUACCAAAAACAGAGUGGCAAGUGUAUUUUAGUAGCAGUUGAGGCAAUUAGUUUUAGGGUGAAUUUUUCACUGUUGAUUUUACUUUAAGUGGAAUUCUCGGGUGCCAA`: “RBNS enrichment (R)” 0.418.
`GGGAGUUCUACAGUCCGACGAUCAUUUGGGUCCUCUCGGCCCCAACUGACCAGAGGCCAACUGUGUUCACAUUUAUUUUUCUUAAAGUACUUUUGUUCCAAAGGGGCCUUGUGGCGCCAGAGAGCUAGGAACUUGGAAUUCUCGGGUGCCAA`: “RBNS enrichment (R)” 0.232.
Under “RBNS enrichment (R)”, `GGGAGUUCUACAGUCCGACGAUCUGCUGGGUUGAACAGAGUCCCUUAUGCUUUUUGUCCUCUCCCUGCGCCUGGGAGAGGUGGGAGUAGGAGCCCAAACACACAGGUACAGAAAGAUCUGGAAGAAGGCCUGGUGGAAUUCUCGGGUGCCAA` is recorded as 0.329.
Under “RBNS enrichment (R)”, `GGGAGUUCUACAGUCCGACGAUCGUGCGUGGGAAGACAUGCCCCAGGCCCAGCCCUGACCACAUGUGUUGCUAAUUCCUGUCUGGUUCCUCUCUGGCAGAGCUUGGGAGGCACAAGAGAUCCUUUUCUCUUUCUGGAAUUCUCGGGUGCCAA` is recorded as 0.345.
`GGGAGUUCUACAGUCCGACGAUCAAGAACUGCUUCAUAAAAUAUGUAUUAAGUAUUGUAUUUCCCUCUUAGCAGUUGAAUCCAAACCAGUUUCAUUUAGCUGGAAGUAGACAGGAAGGAGCUGCCUUAAGCACUGGAAUUCUCGGGUGCCAA` — result for “RBNS enrichment (R)”: 0.455.
For `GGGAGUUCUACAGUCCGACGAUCAAGUUGAGAUUCACUGAUUACAGUCAGGUGGAUCCAUAUGUGUAGCCUCCUUUCGCAGCCAGCCUGGGAUAGAGUUACUGACAUUUGAGGGCUGGCCAUCUUUCACCAUGUGGAAUUCUCGGGUGCCAA`, “RBNS enrichment (R)” read 0.257.
`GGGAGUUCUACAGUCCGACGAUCUGUUUUUAAAGGUGGAUUUUGUUUAAAAAAUCUUAAUGAAUGAGUCUGUUGUGUGUCAUGCCAGUGAGGGACGUCAGACUUGGCUCAGCUCGGGGAGCCUUAGCCGCCCAUGGAAUUCUCGGGUGCCAA` — result for “RBNS enrichment (R)”: 0.569.
For `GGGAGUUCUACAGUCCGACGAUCAAAUAUUCAGAUACAAGUUUUAUCUCAGGUGAAUACUCUUGUAUUGUUUUUGCUUUGGUGACAUGCUUAUAAAGGGUCAUCCUAGUUACAUUCUUUGUUUUUUAAGUGUAUGGAAUUCUCGGGUGCCAA`, “RBNS enrichment (R)” read 0.489.
`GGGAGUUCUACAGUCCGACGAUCACUGCCACUCUAUGAGAAAACCCUCUGCCCUUUACUGCUGCUGGCUUGCCGUCUGGGAUGCUCAGUAGAGUCAAGGGACCCAGCAGAGAUGCAUGAGACAAGAUGGAUUGUGGAAUUCUCGGGUGCCAA` — result for “RBNS enrichment (R)”: 0.57.

Study 4
Target: Interferon regulatory factor 5, full length, phosphomimetic (IRF5, Homo sapiens, UniProt Q13568-2, residues 1-514, K96S/S451D/S453D/S456D/S462D)
Technique: protein-binding microarray
Molecule type: double-stranded DNA, one strand shown
Matrix: in vitro
Tested at: 250 nM
Notes: 60-bp whole probe
Together with: salmon DNA 0.4 mg/ml
Reference: random background probes
Reading: higher = stronger binding
Shared flanks, not repeated: GCCTAGCAC … GTCTTGATTCGCTTGACGCTGCTG
With `AGAGAGAGTGAGGAACAACAGTGCTAG` the log fluorescence was -0.298 z-score.
For `TCATTTATGCTTTCTTTAACTGTGCTA`, the log fluorescence was 1.84 z-score.
With `GACGGTATCGGGAATGGGGACGTGCTA` the log fluorescence was 1.48 z-score.
`TAAGGTATCGACACTGGGTTAGTGCTA` gave a log fluorescence of 1.28 z-score.
For `TTAGGTTTCGGACTGGGTTAGTGCTAG`, the log fluorescence was 5.09 z-score.
`GATGGTTTCCTTCTCCTGACGTGCTAG` gave a log fluorescence of 1.13 z-score.
`GACGTACTGGGTTTCGGGACGTGCTAG` gave a log fluorescence of 2.34 z-score.
With `AGTATGTTCACTATTTAAGAGTGCTAG` the log fluorescence was 0.501 z-score.
`TTAGACATCAGTCTCGATTAGTGCTAG` gave a log fluorescence of 0.809 z-score.
The log fluorescence of `GACGGACTGGGGTATTGGGACGTGCTA` is reported as -0.657 z-score.
The log fluorescence of `GACCGACTGGGTTTCGGGACGTGCTAG` is reported as 2.92 z-score.
The log fluorescence of `GACGGTTTCGGTCTCGGGAAGTGCTAG` is reported as 9.72 z-score.
For `GACGGTCTCCTTCCCCTGACGTGCTAG`, the log fluorescence was -0.0767 z-score.
With `GACGGTTTCGGCCTCGGGACGTGCTAG` the log fluorescence was 6.25 z-score.
With `TCATGTTGCTGTTTGAGACTGTGCTAG` the log fluorescence was 0.39 z-score.
`TCAATTATATCTGTGTTACTGTGCTAG` gave a log fluorescence of 1.13 z-score.

Study 5
Target: Histone acetyltransferase KAT6A, winged helix 2, GST fusion (KAT6A, Homo sapiens, UniProt Q92794, residues 85-181)
Technique: protein binding microarray
Molecule type: double-stranded DNA, one strand shown
Matrix: in vitro
Tested at: not given
Notes: 8-mer, flanks averaged, mean of 2 arrays, mostly near background
Reference: not given
Reading: higher = stronger binding
Target sequence (chain): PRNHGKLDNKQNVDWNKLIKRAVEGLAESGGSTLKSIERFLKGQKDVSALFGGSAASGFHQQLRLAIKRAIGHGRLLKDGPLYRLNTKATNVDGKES
`CTTGTGTC` gave an E-score of -0.0464.
For `ACGGGGCG`, the E-score was 0.174.
For `CTGATACA`, the E-score was -0.0727.
`CTATCGTA` gave an E-score of -0.162.
For `AATGGCAC`, the E-score was -0.142.
With `ATCGAGAC` the E-score was 0.0274.
For `ACAGAAGA`, the E-score was -0.0421.
With `CCCGAAAA` the E-score was 0.106.
`CCTGTTTA` gave an E-score of -0.16.
For `CATTGATC`, the E-score was 0.0049.
For `CAGGAACA`, the E-score was -0.103.
`GCAGGGTA` gave an E-score of -0.0424.
With `CGAGCGAG` the E-score was 0.275.
For `ACCTGCAG`, the E-score was 0.0507.

Excerpt of the above (study 5):
For `CATTGATC`, the E-score was 0.0049.
With `CGAGCGAG` the E-score was 0.275.
`GCAGGGTA` gave an E-score of -0.0424.
For `ACAGAAGA`, the E-score was -0.0421.
For `AATGGCAC`, the E-score was -0.142.
With `CCCGAAAA` the E-score was 0.106.
